{"data": "Results gathered from unrelated publications", "HDAC8": "Histone deacetylase 8 (HDAC8, Homo sapiens, UniProt Q9BY41)", "ADRA2B": "Alpha-2B adrenergic receptor (ADRA2B, Homo sapiens, UniProt P18089)", "DRD3": "D(3) dopamine receptor (DRD3, Homo sapiens, UniProt P35462)", "ADRA2C": "Alpha-2C adrenergic receptor (ADRA2C, Homo sapiens, UniProt P18825)", "HDAC6": "Protein deacetylase HDAC6 (HDAC6, Homo sapiens, UniProt Q9UBN7)", "note": "Each line is one published result; not all experiments were run side by side.", "sequence of UniProt Q9BY41 (whole entry, looked up)": "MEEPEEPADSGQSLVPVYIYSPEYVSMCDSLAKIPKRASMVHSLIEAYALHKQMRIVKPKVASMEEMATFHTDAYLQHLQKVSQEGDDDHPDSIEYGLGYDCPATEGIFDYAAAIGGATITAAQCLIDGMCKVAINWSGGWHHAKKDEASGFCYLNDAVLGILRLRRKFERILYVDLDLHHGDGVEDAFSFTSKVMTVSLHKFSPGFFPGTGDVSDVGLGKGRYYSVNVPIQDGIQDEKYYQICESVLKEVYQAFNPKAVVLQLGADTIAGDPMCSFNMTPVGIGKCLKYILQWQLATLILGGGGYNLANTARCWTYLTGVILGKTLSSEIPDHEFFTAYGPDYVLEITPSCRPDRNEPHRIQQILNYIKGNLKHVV", "sequence of UniProt P18825 (whole entry, looked up)": "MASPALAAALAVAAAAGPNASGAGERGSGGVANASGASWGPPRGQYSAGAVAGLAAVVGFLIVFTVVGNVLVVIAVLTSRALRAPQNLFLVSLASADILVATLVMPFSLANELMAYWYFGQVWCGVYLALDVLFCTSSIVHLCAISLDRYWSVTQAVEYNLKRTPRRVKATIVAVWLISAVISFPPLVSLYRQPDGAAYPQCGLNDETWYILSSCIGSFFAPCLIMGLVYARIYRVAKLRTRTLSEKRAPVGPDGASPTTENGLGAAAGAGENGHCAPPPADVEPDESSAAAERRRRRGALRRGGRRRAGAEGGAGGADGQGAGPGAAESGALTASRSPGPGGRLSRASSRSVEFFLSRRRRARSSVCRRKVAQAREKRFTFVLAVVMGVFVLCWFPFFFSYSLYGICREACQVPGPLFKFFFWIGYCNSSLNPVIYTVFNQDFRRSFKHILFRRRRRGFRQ", "sequence of UniProt P35462 (whole entry, looked up)": "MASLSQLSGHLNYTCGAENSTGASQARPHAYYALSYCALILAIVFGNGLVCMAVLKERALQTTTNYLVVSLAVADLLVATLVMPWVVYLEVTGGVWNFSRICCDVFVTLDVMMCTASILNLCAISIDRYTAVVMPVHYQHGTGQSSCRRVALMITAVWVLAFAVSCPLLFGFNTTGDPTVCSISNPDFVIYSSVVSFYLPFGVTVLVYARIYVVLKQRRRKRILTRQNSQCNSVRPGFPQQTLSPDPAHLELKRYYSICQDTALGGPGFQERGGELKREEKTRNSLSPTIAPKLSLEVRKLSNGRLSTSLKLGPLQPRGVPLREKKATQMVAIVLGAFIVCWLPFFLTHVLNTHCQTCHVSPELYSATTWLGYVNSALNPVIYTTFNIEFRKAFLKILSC", "sequence of UniProt Q9UBN7 (whole entry, looked up)": "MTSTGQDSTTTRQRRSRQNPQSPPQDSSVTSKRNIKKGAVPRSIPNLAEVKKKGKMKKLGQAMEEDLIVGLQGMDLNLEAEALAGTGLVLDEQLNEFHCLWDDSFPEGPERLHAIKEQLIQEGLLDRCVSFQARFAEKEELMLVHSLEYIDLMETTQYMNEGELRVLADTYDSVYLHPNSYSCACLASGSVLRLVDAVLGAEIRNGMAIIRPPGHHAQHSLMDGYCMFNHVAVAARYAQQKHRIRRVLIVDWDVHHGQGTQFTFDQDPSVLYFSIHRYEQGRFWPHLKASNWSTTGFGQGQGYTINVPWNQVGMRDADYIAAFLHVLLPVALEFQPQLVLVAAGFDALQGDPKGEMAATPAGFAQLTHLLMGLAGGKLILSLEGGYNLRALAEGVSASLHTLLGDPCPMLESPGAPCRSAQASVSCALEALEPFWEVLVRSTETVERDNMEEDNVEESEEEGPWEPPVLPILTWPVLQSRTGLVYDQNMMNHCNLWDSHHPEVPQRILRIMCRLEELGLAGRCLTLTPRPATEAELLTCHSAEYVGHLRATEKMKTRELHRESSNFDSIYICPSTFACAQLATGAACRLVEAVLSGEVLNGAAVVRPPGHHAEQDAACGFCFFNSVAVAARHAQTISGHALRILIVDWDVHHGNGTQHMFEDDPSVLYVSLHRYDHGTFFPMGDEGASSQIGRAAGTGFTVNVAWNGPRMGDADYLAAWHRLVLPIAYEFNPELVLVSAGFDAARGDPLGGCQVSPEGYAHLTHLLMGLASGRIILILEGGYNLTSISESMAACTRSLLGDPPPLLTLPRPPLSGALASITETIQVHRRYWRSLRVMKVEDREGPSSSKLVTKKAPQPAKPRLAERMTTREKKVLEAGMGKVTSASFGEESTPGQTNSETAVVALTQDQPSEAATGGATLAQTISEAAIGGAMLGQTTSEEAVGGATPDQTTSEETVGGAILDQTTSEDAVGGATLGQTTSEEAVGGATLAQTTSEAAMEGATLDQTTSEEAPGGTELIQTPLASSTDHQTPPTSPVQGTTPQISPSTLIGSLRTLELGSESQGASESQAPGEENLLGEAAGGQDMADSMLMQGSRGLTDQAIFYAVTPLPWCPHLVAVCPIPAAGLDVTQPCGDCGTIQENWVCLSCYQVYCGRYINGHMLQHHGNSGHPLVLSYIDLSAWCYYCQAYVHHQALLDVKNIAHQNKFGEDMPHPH", "sequence of UniProt P18089 (whole entry, looked up)": "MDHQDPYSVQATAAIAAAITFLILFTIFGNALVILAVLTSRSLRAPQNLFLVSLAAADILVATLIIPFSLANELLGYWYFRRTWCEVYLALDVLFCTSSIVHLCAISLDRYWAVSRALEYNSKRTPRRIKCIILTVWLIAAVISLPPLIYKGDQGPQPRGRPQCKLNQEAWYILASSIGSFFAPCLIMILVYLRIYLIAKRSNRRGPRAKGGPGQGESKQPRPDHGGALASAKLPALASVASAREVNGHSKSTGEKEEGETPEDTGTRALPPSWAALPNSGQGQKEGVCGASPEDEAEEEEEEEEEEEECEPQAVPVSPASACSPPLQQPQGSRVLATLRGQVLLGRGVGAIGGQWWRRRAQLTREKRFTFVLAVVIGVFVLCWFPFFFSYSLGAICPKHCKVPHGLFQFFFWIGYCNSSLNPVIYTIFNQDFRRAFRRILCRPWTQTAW", "sequence of UniProt Q13547 (whole entry, looked up)": "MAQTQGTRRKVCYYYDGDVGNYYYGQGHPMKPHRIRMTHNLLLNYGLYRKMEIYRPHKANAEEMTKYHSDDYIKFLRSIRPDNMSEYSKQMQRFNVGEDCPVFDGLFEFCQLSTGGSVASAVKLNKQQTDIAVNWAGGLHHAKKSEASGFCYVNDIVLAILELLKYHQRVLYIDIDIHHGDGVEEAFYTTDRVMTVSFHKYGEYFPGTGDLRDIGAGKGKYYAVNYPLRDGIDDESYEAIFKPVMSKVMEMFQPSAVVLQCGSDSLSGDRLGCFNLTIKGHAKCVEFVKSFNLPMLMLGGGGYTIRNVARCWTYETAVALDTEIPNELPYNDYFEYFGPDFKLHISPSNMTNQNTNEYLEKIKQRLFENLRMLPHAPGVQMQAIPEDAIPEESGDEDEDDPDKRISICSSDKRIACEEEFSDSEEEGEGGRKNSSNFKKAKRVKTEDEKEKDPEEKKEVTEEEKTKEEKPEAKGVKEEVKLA", "sequence of UniProt P35348 (whole entry, looked up)": "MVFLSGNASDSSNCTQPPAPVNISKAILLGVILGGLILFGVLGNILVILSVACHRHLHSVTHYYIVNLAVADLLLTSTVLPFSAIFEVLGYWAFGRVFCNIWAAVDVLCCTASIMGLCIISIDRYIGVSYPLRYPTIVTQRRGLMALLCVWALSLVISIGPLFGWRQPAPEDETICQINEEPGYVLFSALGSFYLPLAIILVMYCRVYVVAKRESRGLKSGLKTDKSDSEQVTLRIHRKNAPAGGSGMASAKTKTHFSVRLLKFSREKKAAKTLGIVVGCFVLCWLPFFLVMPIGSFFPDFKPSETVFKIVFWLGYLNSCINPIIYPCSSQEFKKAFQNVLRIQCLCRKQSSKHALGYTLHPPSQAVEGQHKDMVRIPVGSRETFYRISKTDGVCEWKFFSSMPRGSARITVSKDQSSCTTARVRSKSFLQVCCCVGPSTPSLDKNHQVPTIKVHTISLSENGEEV", "sequence of UniProt P0DMS8 (whole entry, unmodified, looked up)": "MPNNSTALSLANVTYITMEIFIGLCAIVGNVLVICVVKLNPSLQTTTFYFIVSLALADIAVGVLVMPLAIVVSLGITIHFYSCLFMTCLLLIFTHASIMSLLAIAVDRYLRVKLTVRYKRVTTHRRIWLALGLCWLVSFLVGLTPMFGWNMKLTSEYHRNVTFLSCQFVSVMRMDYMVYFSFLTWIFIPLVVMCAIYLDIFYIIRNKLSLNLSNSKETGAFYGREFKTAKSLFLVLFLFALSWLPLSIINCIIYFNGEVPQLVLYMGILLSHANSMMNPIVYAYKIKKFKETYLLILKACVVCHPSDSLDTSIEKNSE"}
{"SMILES": "O=C(NO)c1cncc(OS(=O)(=O)Oc2ccc(C(F)(F)F)cc2)c1", "target": "HDAC8", "read-out": "enzyme activity", "mode": "inhibitor", "technique": "fluorescence", "measurement": "IC50", "value": "1200 nM"}
{"SMILES": "Cc1cc(Oc2ncccc2CN2CCN(c3ccc(O)cc3)CC2)ccc1-c1c(C)c(=O)[nH]c(=O)n1C", "target": "ADRA2B", "read-out": "ligand displacement", "technique": "radioligand", "measurement": "Ki", "value": "762 nM"}
{"SMILES": "[2H]C1([2H])CCC([2H])([2H])N1C(=O)c1c(C)[nH]c(C)c1S(=O)(=O)Nc1ccc(C(F)(F)F)c(Cl)c1", "target": "DRD3", "read-out": "β-arrestin recruitment", "mode": "antagonist", "measurement": "IC50", "value": "2400 nM"}
{"SMILES": "CN(C)c1ncnc2c1ncn2[C@@H]1O[C@H](CO)[C@@H](O)[C@H]1O", "target": "ADORA3 (Homo sapiens, UniProt P0DMS8, I253M)", "read-out": "G protein activation", "mode": "agonist", "measurement": "EC50", "value": "16000 nM"}
{"SMILES": "Cc1[nH]c(C)c(S(=O)(=O)Nc2ccc(C(F)(F)F)c(Cl)c2)c1C(=O)N(C)C", "target": "DRD3", "read-out": "β-arrestin recruitment", "mode": "antagonist", "measurement": "IC50", "value": "2400 nM"}
{"SMILES": "O=C(NO)c1cccc(OS(=O)(=O)Oc2cccc(-c3ccccc3)c2)c1", "target": "HDAC8", "read-out": "enzyme activity", "mode": "inhibitor", "technique": "fluorescence", "measurement": "Ki", "value": "470 nM"}
{"SMILES": "Cc1cc(Oc2ncccc2CN2CCN(c3ccccc3C(F)(F)F)CC2)ccc1-c1c(C)c(=O)[nH]c(=O)n1C", "target": "ADRA2C", "read-out": "ligand displacement", "technique": "radioligand", "measurement": "Ki", "value": "18.4 nM"}
{"SMILES": "COc1ccc(OS(=O)(=O)Oc2cccc(C(=O)NO)c2)cc1OC", "target": "HDAC6", "read-out": "enzyme activity", "mode": "inhibitor", "technique": "fluorescence", "measurement": "IC50", "value": "63 nM"}
{"SMILES": "Cc1cc(Oc2ncccc2CN2CCN(c3c(C)cccc3C)CC2)ccc1-c1c(C)c(=O)[nH]c(=O)n1C", "target": "ADRA2C", "read-out": "ligand displacement", "technique": "radioligand", "measurement": "Ki", "value": "194 nM"}
{"SMILES": "Cc1[nH]cc(C(=O)N(C)C)c1S(=O)(=O)Nc1ccc(C(F)(F)F)c(Cl)c1", "target": "DRD3", "read-out": "G protein activation", "mode": "antagonist", "technique": "BRET", "measurement": "IC50", "value": "25000 nM"}
{"SMILES": "Cc1cc(Oc2ncccc2CN2CCN(c3ccc(C(F)(F)F)cc3[N+](=O)[O-])CC2)ccc1-c1c(C)c(=O)[nH]c(=O)n1C", "target": "ADRA2B", "read-out": "ligand displacement", "technique": "radioligand", "measurement": "Ki", "value": "2590 nM"}
{"SMILES": "Cc1[nH]c(C)c(S(N)(=O)=Nc2ccc(C(F)(F)F)c(Cl)c2)c1C(=O)N1CCC(F)(F)C1 (stereo not shown)", "target": "DRD3", "read-out": "β-arrestin recruitment", "mode": "antagonist", "measurement": "IC50", "value": "12800 nM"}
{"SMILES": "Cc1cc(Oc2ncccc2CN2CCN(c3ccccc3[N+](=O)[O-])CC2)ccc1-c1c(C)c(=O)[nH]c(=O)n1C", "target": "ADRA2C", "read-out": "ligand displacement", "technique": "radioligand", "measurement": "Ki", "value": "26 nM"}
{"SMILES": "O=C(NO)c1cc(F)cc(OS(=O)(=O)Oc2ccc(-n3ccnc3)cc2)c1", "target": "HDAC8", "read-out": "enzyme activity", "mode": "inhibitor", "technique": "fluorescence", "measurement": "Ki", "value": "463 nM"}
{"SMILES": "Cc1[nH]c(C)c(S(=O)(=O)Nc2ccc(C(F)(F)F)c(Cl)c2)c1C(=O)N1CC(F)(F)C(F)(F)C1", "target": "DRD3", "read-out": "β-arrestin recruitment", "mode": "antagonist", "measurement": "IC50", "value": "21000 nM"}
{"SMILES": "O=C(NO)c1cc(F)cc(OS(=O)(=O)Oc2ccc(Oc3ccccc3)cc2)c1", "target": "HDAC8", "read-out": "enzyme activity", "mode": "inhibitor", "technique": "fluorescence", "measurement": "IC50", "value": "5850 nM"}
{"SMILES": "CCc1ccc(NS(=O)(=O)c2c(C)[nH]c(C)c2C(=O)N2CCCC2)cc1Cl", "target": "DRD3", "read-out": "G protein activation", "mode": "antagonist", "technique": "BRET", "measurement": "IC50", "value": "6400 nM"}
{"SMILES": "Cc1cc(Oc2ncccc2CN2CCN(c3cc(Cl)cc(Cl)c3)CC2)ccc1-c1c(C)c(=O)[nH]c(=O)n1C", "target": "ADRA2C", "read-out": "ligand displacement", "technique": "radioligand", "measurement": "Ki", "value": "301 nM"}
{"SMILES": "O=C(NO)c1cncc(OS(=O)(=O)Oc2ccc3ccccc3c2)c1", "target": "HDAC1 (Homo sapiens, UniProt Q13547)", "read-out": "enzyme activity", "mode": "inhibitor", "technique": "fluorescence", "measurement": "Ki", "value": "301 nM"}
{"SMILES": "Cc1cc(Oc2ncccc2CN2CCN(c3cccc(Cl)c3)CC2)ccc1-c1c(C)c(=O)[nH]c(=O)n1C", "target": "ADRA1A (Homo sapiens, UniProt P35348)", "read-out": "ligand displacement", "technique": "radioligand", "measurement": "Ki", "value": "1440 nM"}
{"SMILES": "Cc1[nH]c(C)c(S(=O)(=O)Nc2ccc(C(F)(F)F)c(Cl)c2)c1C(=O)N1CCC(F)(F)C1", "target": "DRD3", "read-out": "ligand displacement", "technique": "radioligand", "notes": "cell membranes", "measurement": "Kb", "value": "1700 nM"}
{"SMILES": "O=C(NO)c1cncc(OS(=O)(=O)Oc2ccc(-n3ccnc3)cc2)c1", "target": "HDAC6", "read-out": "enzyme activity", "mode": "inhibitor", "technique": "fluorescence", "measurement": "IC50", "value": "64 nM"}
